Experimental data of several laboratories.
Numbered parts are unrelated; each lists some results of a single study. “And” joins repeats or separate records; there may be more than shown.
Chain of UniProt P07333 (whole entry, looked up): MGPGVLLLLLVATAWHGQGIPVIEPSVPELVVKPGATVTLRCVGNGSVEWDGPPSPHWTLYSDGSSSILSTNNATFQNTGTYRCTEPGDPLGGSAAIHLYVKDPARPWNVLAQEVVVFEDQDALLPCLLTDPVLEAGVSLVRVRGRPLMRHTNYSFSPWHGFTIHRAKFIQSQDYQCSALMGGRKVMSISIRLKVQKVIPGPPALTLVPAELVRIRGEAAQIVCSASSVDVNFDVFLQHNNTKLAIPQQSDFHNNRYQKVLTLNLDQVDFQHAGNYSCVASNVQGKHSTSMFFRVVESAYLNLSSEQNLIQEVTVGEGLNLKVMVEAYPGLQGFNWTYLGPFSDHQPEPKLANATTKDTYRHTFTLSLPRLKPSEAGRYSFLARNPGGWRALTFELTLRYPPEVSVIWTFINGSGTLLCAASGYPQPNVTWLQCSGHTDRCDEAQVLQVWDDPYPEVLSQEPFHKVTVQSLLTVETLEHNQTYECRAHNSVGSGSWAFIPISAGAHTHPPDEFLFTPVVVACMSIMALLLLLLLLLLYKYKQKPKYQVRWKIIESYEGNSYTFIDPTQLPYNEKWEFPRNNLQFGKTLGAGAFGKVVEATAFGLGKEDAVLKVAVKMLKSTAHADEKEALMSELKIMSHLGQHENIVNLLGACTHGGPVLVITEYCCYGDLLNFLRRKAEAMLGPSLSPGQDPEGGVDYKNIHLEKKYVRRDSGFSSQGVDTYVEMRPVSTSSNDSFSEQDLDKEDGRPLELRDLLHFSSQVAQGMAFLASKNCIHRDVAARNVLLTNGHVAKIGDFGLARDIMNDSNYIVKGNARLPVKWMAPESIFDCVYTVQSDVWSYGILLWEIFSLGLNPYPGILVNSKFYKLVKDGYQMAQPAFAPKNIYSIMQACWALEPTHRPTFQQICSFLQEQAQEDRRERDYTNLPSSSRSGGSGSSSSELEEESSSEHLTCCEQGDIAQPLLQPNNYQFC
Chain of UniProt Q9Y2I7 (whole entry, looked up): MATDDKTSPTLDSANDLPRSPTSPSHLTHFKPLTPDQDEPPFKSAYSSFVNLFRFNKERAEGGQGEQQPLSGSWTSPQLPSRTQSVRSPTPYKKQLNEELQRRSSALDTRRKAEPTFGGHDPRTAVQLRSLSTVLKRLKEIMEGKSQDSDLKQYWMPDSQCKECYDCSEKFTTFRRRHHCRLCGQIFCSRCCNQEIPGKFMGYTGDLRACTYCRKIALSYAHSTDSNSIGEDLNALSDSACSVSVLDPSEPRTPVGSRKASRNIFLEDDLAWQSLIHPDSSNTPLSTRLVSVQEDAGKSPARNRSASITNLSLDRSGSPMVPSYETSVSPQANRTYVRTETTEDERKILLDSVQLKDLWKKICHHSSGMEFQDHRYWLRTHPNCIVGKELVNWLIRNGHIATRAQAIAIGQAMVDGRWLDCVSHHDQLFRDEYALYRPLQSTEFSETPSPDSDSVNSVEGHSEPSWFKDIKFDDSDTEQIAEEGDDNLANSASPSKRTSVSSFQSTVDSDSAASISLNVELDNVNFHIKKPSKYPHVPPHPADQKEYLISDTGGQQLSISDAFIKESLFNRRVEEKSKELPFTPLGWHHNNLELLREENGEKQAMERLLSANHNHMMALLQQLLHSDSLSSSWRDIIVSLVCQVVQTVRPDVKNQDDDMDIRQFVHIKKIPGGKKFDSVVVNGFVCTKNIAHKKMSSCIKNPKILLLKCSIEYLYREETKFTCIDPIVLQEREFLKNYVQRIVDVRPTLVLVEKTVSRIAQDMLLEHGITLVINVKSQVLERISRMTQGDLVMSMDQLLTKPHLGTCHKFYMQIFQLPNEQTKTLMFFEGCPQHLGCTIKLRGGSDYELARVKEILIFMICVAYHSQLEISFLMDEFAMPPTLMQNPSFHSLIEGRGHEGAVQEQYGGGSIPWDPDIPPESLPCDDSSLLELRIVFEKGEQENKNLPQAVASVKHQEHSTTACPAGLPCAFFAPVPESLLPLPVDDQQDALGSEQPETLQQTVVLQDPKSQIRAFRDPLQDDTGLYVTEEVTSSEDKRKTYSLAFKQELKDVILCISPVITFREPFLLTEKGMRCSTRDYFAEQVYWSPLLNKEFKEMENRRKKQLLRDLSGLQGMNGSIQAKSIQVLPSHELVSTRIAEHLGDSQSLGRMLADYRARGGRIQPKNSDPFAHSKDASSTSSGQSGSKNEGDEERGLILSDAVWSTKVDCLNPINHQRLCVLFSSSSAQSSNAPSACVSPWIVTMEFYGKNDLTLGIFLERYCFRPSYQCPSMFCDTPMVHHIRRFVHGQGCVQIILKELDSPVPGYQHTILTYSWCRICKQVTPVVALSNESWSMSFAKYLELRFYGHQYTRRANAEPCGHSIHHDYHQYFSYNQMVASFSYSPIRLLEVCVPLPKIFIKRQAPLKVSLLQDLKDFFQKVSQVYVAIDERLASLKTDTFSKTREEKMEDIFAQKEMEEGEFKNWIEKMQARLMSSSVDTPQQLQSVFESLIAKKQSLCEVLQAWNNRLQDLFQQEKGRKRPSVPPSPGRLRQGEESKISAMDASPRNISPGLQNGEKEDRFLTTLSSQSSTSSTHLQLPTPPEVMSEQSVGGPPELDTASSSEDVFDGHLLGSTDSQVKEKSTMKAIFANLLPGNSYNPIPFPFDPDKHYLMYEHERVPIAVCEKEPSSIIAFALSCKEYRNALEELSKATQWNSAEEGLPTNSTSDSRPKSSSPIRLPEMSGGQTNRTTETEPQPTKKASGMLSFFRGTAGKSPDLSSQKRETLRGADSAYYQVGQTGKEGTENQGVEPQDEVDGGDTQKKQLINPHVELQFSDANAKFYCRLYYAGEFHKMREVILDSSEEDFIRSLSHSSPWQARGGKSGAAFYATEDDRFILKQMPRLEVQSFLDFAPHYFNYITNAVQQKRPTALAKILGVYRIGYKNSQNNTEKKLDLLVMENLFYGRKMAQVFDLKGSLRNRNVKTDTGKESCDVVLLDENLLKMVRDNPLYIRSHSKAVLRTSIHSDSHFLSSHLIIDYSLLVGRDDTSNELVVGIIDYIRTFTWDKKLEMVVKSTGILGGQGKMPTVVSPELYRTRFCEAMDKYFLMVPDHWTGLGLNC

Sample 1
Target: Eukaryotic initiation factor 4A-III (Homo sapiens, UniProt P38919)
Chain of UniProt P38919 (whole entry, looked up): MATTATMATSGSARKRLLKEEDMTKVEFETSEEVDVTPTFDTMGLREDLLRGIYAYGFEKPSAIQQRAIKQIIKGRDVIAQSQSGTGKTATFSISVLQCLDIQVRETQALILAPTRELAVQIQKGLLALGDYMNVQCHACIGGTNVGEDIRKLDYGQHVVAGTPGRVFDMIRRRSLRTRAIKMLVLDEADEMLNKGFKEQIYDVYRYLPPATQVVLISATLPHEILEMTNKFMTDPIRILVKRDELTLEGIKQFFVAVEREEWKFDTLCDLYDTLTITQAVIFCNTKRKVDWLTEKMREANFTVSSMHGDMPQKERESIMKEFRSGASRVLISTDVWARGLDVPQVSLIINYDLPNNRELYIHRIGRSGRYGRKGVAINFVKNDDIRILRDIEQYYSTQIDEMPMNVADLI
Effect on: RNA clamping
Method: fluorescence polarization
Concentration: concentration not given
Notes: mean of two replicates
With: FAM-labelled poly r(AG)8 RNA
SMILES	fluorescence polarization change
COC(=O)[C@@H]1[C@@H](c2ccccc2)[C@]2(c3ccc(OC)cc3)Oc3cc(OC)cc(OC)c3[C@@]23NC(C2CCC2)=N[C@@]13O	28.3 mP
COc1ccc([C@@]23Oc4cc(OC)cc(OC)c4[C@]2(O)[C@H](O)[C@H](C(=O)c2ccco2)[C@H]3c2ccc(O)cc2)cc1	8.4 mP
COC(=O)[C@H]1[C@@H](O)[C@@]2(O)c3c(OC)cc(OS(=O)(=O)c4ccc(C)cc4)cc3O[C@@]2(c2ccc(Br)cc2)[C@@H]1c1ccccc1	11.9 mP and 6.6 mP
COc1ccc([C@@]23Oc4cc(OC)cc(OC)c4[C@]2(O)[C@H](O)[C@H](C(=O)c2oc4ccccc4c2C)[C@H]3c2ccccc2)cc1	4.8 mP
COc1ccc([C@@]23Oc4cc(OC)cc(OC)c4[C@]2(O)c2nc(-c4cccc(OCc5ccccc5)c4)[nH]c(=O)c2[C@H]3c2ccccc2)cc1	1.6 mP
COc1cc(OC)c2c(c1)O[C@@]1(c3ccc(Br)cc3)[C@H](c3ccccc3)C3=C(O[C@@H]4CCCN4C3=O)[C@@]21O	43.2 mP
COc1ccc([C@@]23Oc4cc(OC)c(F)c(OC)c4[C@]2(O)c2nc4n(c(=O)c2[C@H]3c2ccccc2)CCC4)cc1	22.5 mP
COC(=O)[C@@H]1[C@@H](c2ccccc2)[C@]2(c3ccc(OC)cc3)Oc3cc(OC)cc(OC)c3[C@@]23N=C2CCCCN2[C@@]13O	22.3 mP
COc1ccc([C@]23Oc4cc(OC)cc(OC)c4[C@](O)(C2O)[C@H](c2c(F)c(F)c(F)c(F)c2F)[C@H]3c2ccccc2)cc1 (some centres unmarked)	4.9 mP
COC(=O)[C@H]1C(=O)[C@@]2(NCCN(C)C)c3c(OC)cc(OC)cc3O[C@@]2(c2ccc(OC)cc2)[C@@H]1c1ccccc1	5.1 mP
COCCOCOC(=C(F)F)c1ccc([C@@H]2[C@@H](C(=O)N(C)OC)[C@@H](O)[C@@]3(O)c4c(OC)cc(OC)cc4O[C@@]23c2ccc(OC)cc2)cc1	-2.9 mP
COc1ccc([C@@]23Oc4cc(OC)cc(OC)c4[C@]2(O)C(=O)[C@H](C(=O)NCCCC2(C)OCCO2)[C@H]3c2ccccc2)cc1	29.9 mP
C#CCOc1ccc(-c2nc3c(c(=O)n2CC#C)[C@@H](c2ccccc2)[C@]2(c4ccc(OC)cc4)Oc4cc(OC)cc(OC)c4[C@]32O)cc1	3.6 mP

Sample 2
Compound: COc1cc2ncnc(Nc3ccc(OCc4ccccc4)cc3)c2cc1OC
Effect on: enzyme activity
Action: inhibitor
Concentration: 0.5 µM
Baseline: control
target	remaining activity [%]
EPHA7 (Homo sapiens, UniProt Q15375)	97
PRKCG (Homo sapiens, UniProt P05129)	98.5
EPHB2 (Homo sapiens, UniProt P29323)	93.9
PRKCE (Homo sapiens, UniProt Q02156)	99.4
SRPK3 (Homo sapiens, UniProt Q9UPE1)	92.8
FGFR4 (Homo sapiens, UniProt P22455)	106
Aurora kinase C (AURKC, Homo sapiens, UniProt Q9UQB9)	84.8
MYLK (Homo sapiens, UniProt Q15746)	95
SGK1 (Homo sapiens, UniProt O00141)	103
GSK3A (Homo sapiens, UniProt P49840)	104
FLT3 (Homo sapiens, UniProt P36888)	56.4
PIM2 (Homo sapiens, UniProt Q9P1W9)	97.6
GRK6 (Homo sapiens, UniProt P43250)	104
CSF1R (Homo sapiens, UniProt P07333)	97.8
BMX (Homo sapiens, UniProt P51813)	89.7
CSK (Homo sapiens, UniProt P41240)	72.5
NUAK1 (Homo sapiens, UniProt O60285)	94.8
PAK2 (Homo sapiens, UniProt Q13177)	102
GRK2 (Homo sapiens, UniProt P25098)	101
RPS6KA1 (Homo sapiens, UniProt Q15418)	90.2
RPS6KB1 (Homo sapiens, UniProt P23443)	95.1

Sample 3
SMILES: Nc1c(C(=O)NCc2ccc(C(=O)NCCCC3CCCCC3)cc2)cnn1-c1ccccc1
Effect on: cell-free assay
Method: competition with immobilised ligand
Concentration: 0.1 µM
target	remaining binding [%]
KIT (Homo sapiens, UniProt P10721, A829P)	100
MAPK9 (Homo sapiens, UniProt P45984)	100
PRKCH (Homo sapiens, UniProt P24723)	98
MAP3K2 (Homo sapiens, UniProt Q9Y2U5)	100
MAST1 (Homo sapiens, UniProt Q9Y2H9)	100
RIOK1 (Homo sapiens, UniProt Q9BRS2)	95
EGFR (Homo sapiens, UniProt P00533, G719C)	85
MET (Homo sapiens, UniProt P08581, M1250T)	100
RIOK2 (Homo sapiens, UniProt Q9BVS4)	92
RIPK1 (Homo sapiens, UniProt Q13546)	100
PLK4 (Homo sapiens, UniProt O00444)	100
PIKFYVE (Homo sapiens, UniProt Q9Y2I7)	100
LIM domain kinase 1 (LIMK1, Homo sapiens, UniProt P53667)	100
PRKD2 (Homo sapiens, UniProt Q9BZL6)	100
PRKG1 (Homo sapiens, UniProt Q13976)	74
MARK2 (Homo sapiens, UniProt Q7KZI7)	65
CSF1R (Homo sapiens, UniProt P07333)	91
MAP3K12 (Homo sapiens, UniProt Q12852)	100
FGFR1 (Homo sapiens, UniProt P11362)	71
TBK1 (Homo sapiens, UniProt Q9UHD2)	96
MYLK2 (Homo sapiens, UniProt Q9H1R3)	100
PAK3 (Homo sapiens, UniProt O75914)	100
EGFR (Homo sapiens, UniProt P00533, A750P/del747-749)	100
CDK11A (Homo sapiens, UniProt Q9UQ88)	100
ERN1 (Homo sapiens, UniProt O75460)	100

Sample 4
Target: Calcium/calmodulin-dependent protein kinase type II subunit alpha (CAMK2A, Homo sapiens, UniProt Q9UQM7)
Chain of UniProt Q9UQM7 (whole entry, looked up): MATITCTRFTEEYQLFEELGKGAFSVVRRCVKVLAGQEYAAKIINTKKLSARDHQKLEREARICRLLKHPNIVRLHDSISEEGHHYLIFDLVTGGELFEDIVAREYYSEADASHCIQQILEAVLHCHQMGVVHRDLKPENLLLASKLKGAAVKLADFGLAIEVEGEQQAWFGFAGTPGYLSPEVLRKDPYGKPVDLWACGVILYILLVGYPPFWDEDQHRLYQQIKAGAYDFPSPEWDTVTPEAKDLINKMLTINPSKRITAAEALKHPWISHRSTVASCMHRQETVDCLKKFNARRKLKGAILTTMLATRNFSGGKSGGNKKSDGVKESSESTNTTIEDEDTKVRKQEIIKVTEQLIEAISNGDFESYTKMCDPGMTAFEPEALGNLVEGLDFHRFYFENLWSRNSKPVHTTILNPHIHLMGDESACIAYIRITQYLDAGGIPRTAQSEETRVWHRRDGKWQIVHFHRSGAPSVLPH
Effect on: enzyme activity
Action: inhibitor
Concentration: 10 µM
SMILES	inhibition [%]
CC(C)[C@H](N)C(=O)OCC(CO)OCn1cnc2c(=O)[nH]c(N)nc21 (some centres unmarked)	-16
OC(Cn1cncn1)(Cn1cncn1)c1ccc(F)cc1F	-11
C=C(CC)C(=O)c1ccc(OCC(=O)O)c(Cl)c1Cl	10
CC(=O)N(CC(O)CN(C(C)=O)c1c(I)c(C(=O)NC[C@@H](O)CO)c(I)c(C(=O)NC[C@@H](O)CO)c1I)c1c(I)c(C(=O)NC[C@@H](O)CO)c(I)c(C(=O)NC[C@@H](O)CO)c1I	-2
CCCCC(=O)OCC(=O)[C@]1(O)Cc2c(O)c3c(c(O)c2[C@@H](O[C@H]2C[C@H](NC(=O)C(F)(F)F)[C@H](O)[C@H](C)O2)C1)C(=O)c1c(OC)cccc1C3=O	4
COc1ccc(/C=C/C(=O)c2c(O)cc(O[C@@H]3O[C@H](CO[C@@H]4O[C@@H](C)[C@H](O)[C@@H](O)[C@H]4O)[C@@H](O)[C@H](O)[C@H]3O)cc2OC)cc1O	-14
C[C@@H](CN1CC(=O)NC(=O)C1)N1CC(=O)NC(=O)C1	6
CN1C(C(=O)Nc2ccccn2)=C(O)c2sccc2S1(=O)=O	-13
CC(C)=CCC[C@](C)(O[C@@H]1O[C@H](CO[C@@H]2O[C@H](CO)[C@@H](O)[C@H](O)[C@H]2O)[C@@H](O)[C@H](O)[C@H]1O)[C@H]1CC[C@]2(C)[C@@H]1[C@H](O)C[C@@H]1[C@@]3(C)CC[C@H](O[C@@H]4O[C@H](CO)[C@@H](O)[C@H](O)[C@H]4O[C@@H]4O[C@H](CO)[C@@H](O)[C@H](O)[C@H]4O[C@@H]4OC[C@@H](O)[C@H](O)[C@H]4O)C(C)(C)[C@@H]3CC[C@]12C	26
Cn1cc(C(N)=O)ccc1=O	-5
Cc1ccc(C(=O)O)cc1C	8
O=C1CCc2ccccc2O1	1
CC(C)=C1C/C=C(\C)CC/C=C(\C)CC1=O	14
CC(=O)N[C@@H](CS)C(=O)O	-5
CC(C)=CCC[C@@H](C)[C@@H]1CC[C@]2(C)C3=C(CC[C@@]12C)[C@@]1(C)CC[C@H](O)C(C)(C)[C@@H]1CC3	7

For quick reference, copied from above (sample 3):
target	remaining binding [%]
MYLK2 (Homo sapiens, UniProt Q9H1R3)	100
PAK3 (Homo sapiens, UniProt O75914)	100
EGFR (Homo sapiens, UniProt P00533, A750P/del747-749)	100
CDK11A (Homo sapiens, UniProt Q9UQ88)	100
ERN1 (Homo sapiens, UniProt O75460)	100
